Assay results collected from several papers.
Numbers after ± are the reported error.
ISOC2: Isochorismatase domain-containing protein 2 (ISOC2, Homo sapiens, UniProt Q96AB3)
Sequence of UniProt Q96AB3 (whole entry, looked up): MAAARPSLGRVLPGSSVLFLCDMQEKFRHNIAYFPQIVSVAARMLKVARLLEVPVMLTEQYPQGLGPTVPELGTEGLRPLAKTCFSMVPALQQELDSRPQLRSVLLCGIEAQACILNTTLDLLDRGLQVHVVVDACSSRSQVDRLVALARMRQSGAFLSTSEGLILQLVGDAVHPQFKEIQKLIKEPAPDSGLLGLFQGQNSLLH
DRD2: D(2) dopamine receptor (DRD2, Homo sapiens, UniProt P14416)
Sequence of UniProt P14416 (whole entry, looked up): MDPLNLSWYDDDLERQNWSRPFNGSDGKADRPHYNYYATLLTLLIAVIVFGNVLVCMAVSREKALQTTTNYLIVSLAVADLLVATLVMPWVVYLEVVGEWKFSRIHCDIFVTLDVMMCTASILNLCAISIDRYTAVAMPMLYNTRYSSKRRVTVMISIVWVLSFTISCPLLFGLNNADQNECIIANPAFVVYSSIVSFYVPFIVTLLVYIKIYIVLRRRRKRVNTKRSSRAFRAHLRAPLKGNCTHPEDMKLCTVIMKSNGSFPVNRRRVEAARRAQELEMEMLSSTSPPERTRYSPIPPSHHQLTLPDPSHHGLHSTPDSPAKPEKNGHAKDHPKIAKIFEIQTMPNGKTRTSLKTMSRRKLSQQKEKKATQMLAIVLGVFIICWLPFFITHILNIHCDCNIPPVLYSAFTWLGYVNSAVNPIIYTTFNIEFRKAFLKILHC
Sequence of UniProt Q00534 (whole entry, looked up): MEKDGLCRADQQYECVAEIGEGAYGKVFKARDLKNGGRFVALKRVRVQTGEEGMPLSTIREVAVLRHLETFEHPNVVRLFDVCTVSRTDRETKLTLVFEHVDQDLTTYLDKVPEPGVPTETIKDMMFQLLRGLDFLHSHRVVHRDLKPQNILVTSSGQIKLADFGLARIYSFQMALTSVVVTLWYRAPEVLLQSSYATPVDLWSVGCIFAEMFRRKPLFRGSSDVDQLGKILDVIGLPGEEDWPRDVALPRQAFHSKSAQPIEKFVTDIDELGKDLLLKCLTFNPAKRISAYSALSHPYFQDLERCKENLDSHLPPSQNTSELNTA
Sequence of UniProt P02763 (whole entry, looked up): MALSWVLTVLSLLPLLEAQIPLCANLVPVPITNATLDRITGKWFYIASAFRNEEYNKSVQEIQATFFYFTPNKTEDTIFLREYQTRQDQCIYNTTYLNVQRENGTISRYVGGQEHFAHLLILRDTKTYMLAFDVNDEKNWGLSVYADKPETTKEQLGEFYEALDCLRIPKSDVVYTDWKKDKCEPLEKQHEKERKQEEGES
Sequence of UniProt P34995 (whole entry, unmodified, looked up): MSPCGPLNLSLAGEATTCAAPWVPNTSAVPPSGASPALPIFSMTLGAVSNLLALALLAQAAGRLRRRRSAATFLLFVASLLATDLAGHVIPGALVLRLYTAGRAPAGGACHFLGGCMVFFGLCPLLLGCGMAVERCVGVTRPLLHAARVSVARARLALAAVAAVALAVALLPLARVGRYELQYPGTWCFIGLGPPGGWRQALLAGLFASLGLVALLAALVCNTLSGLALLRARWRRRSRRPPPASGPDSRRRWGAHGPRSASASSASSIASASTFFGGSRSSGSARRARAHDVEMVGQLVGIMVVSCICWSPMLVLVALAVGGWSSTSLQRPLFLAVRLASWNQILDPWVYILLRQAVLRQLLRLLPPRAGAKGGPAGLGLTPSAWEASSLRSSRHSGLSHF

Structure (SMILES) | target or system | assay | test system | setting | how to read | endpoint | result
CC(C)C[C@H](NC(=O)C[C@H](O)[C@H](CC(C)C)NC(=O)[C@H](Cc1c[nH]cn1)NC(=O)CNC(=O)[C@@H](NC(=O)[C@H](C)NC(=O)[C@H](Cc1c[nH]c2ccccc12)NC(=O)[C@H](CCC(N)=O)NC(=O)[C@@H](Cc1ccccc1)NC(=O)COCCOCCNC(=O)CCC(C(=O)O)N1CCN(CC(=O)O)CCN(CC(=O)O)CCN(CC(=O)O)CC1)C(C)C)C(N)=O (stereo partly drawn) [lutetium-177 labelled] | – | – | BALB/c nu/nu mice, carcass | 750 pmol, 1 h, together with: PA 300 µg | – | tissue uptake | 3 ± 1 %ID
CC(C)[C@H](NC(=O)[C@H](Cc1ccc(O)cc1)NC(=O)[C@H](Cc1ccc(O)cc1)NC(=O)[C@@H]1CCCN1C(=O)[C@H](CCC(=O)O)NC(=O)[C@H](CCC(=O)O)NC(=O)[C@H](Cc1c[nH]c2ccccc12)NC(=O)[C@@H]1CCCN1C(=O)[C@@H](NC(=O)[C@H](CCC(N)=O)NC(=O)c1ccc2c(c1)C(=O)OC21c2ccc(O)cc2Oc2cc(O)ccc21)C(C)C)C(=O)N[C@H](C(=O)N[C@@H](CCCCN)C(=O)N[C@@H](CCCCN)C(=O)N[C@@H](CO)C(=O)N[C@@H](CO)C(=O)NCC(=O)NCC(N)=O)C(C)C | – | item: total compound | human, plasma | intravenous infusion, 500 mg, 15 min | – | plasma concentration | 32200 ng/mL
CC[C@H](CC[C@@H](C)[C@H]1CC[C@H]2[C@@H]3CCC4=CC(=O)CC[C@]4(C)[C@H]3CC[C@]12C)C(C)C | CYP125 ancestral reconstruction | UV-Vis difference spectra | – | Michaelis-Menten fit | – | Kd | 1.1 ± 0.3 µM
O=C(CCCCCCC(=O)Nc1ccc([C@H]2O[C@@H](CSc3nc(-c4ccccc4)c(-c4ccccc4)o3)C[C@@H](c3ccc(CO)cc3)O2)cc1)NO | ISOC2 | inhibitor, competition pulldown | SW620 and MV4-11 lysate | 1 h | – | Kd | > 30.2 µM
Cc1nn2c(N3CCN(CCO)CC3)cc(-c3ccccc3)nc2c1-c1ccccc1 | GTPase KRas, with SOS1 (KRAS, Homo sapiens, UniProt P01116) | SOS-mediated GDP release | – | – | – | EC50 | 5.3 ± 2 µM
N#Cc1ccc2c(c1)[C@H]1CCCN(C(=O)c3ccc4[nH]cnc4c3)[C@H]1C2 | – | item: 1,5-anhydroglucitol | human | 80 mg once daily, day 28, adjusted mean | – | change from baseline | -0.51 mg/L
CN1CCN(c2ccc(Nc3ncc4cc(C#N)c(=O)n(C5CCCC5)c4n3)cc2)CC1 | Cyclin-dependent kinase 6, with cyclin D3 (CDK6, Homo sapiens, UniProt Q00534) | – | – | – | – | IC50 | 0.0346 µM
Cc1ccc(NS(=O)(=O)c2c(C)[nH]c(C)c2C(=O)N2CCC(F)(F)C2)nc1Br | DRD2 | – | – | – | – | IC50 | > 100 µM
CC(=O)c1c(C)c2cnc(Nc3ccc(N4CCN(CCCOc5ccc(CN6CCC(c7ccc8c(c7)CN(C7CCC(=O)NC7=O)C8=O)CC6)cc5)CC4)cn3)nc2n(C2CCCC2)c1=O (stereo not drawn) | CDK6 (Homo sapiens, UniProt Q00534) | protein degradation, degrader, immunoblot | Jurkat | 4 h | – | DC50 | 0.002 µM
CC[C@H]1OC(=O)[C@H](C)[C@@H](O[C@H]2C[C@@](C)(OC)[C@@H](O)[C@H](C)O2)[C@H](C)[C@@H](O[C@@H]2O[C@H](C)C[C@H](N(C)C)[C@H]2O)[C@](C)(O)C[C@@H](C)C(=O)[C@H](C)[C@@H](O)[C@]1(C)O | Alpha-1-acid glycoprotein 1, F1/S variants (ORM1, Homo sapiens, UniProt P02763) | competitive inhibitor, ultrafiltration | – | 15 min, 37 °C, together with: [3H]tamsulosin | – | Ki | 3.93 µM
Cc1[nH]c(C)c(S(=O)(=O)Nc2ccc(B3OC(C)(C)C(C)(C)O3)cc2)c1C(=O)N1CCC(F)(F)C1 | DRD2 | – | – | – | – | IC50 | > 100 µM
Nc1cc(F)ccc1NC(=O)c1ccc(CNC(=O)/C=C/c2cccnc2)cc1 | ISOC2 | inhibitor, competition pulldown | SW620 and MV4-11 lysate | 1 h | – | Kd | > 30.2 µM
Cc1cc(O)cc(C)c1C[C@H](NC(=O)[C@@H]1CCCN1C(=O)[C@H](CCCNC(=N)N)NC(=O)[C@H](CCCNC(=N)N)N(C)C(=O)CNC(=O)[C@@H](CO)NC(=O)CNC(=O)[C@H](Cc1cn(CCNC(=O)[C@H](Cc2ccc(O)cc2)NC(=O)[C@H](CC(C)C)NC(=O)C2OC2C(=O)O)nn1)NC(=O)CN1CCN(CC(=O)O)CCN(CC(=O)O)CCN(CC(=O)O)CC1)C(=O)N[C@H](C(=O)N[C@@H](CC(C)C)C(=O)O)C(C)(C)C (mixture of isomers) | – | – | human | – | – | fraction unbound | 0.884
CCN(CC)Cc1ccc2cc(COC(=O)Nc3ccc(C(=O)NO)cc3)ccc2c1 | ISOC2 | inhibitor, competition pulldown | SW620 and MV4-11 lysate | 1 h | – | Kd | > 30.2 µM
CCN(CC)S(=O)(=O)c1c(C)[nH]c(C)c1C(=O)Nc1ccc(C(F)(F)F)c(Cl)c1 | DRD2 | – | – | – | – | IC50 | > 100 µM
CCCCC[C@H](O)/C=C/[C@H]1[C@H](O)CC(=O)[C@@H]1C/C=C\CCCC(=O)O | PTGER1 (Homo sapiens, UniProt P34995, H145A) | IP1 accumulation, agonist | AD293 | EP1 H145A mutant | – | EC50 | 0.00219 µM
CN(C)C(=O)c1c[nH]cc1S(=O)(=O)Nc1ccc(C(F)(F)F)c(Cl)c1 | DRD2 | – | – | – | – | IC50 | > 100 µM
Cn1cc(-c2ccc(-c3cncc(Cl)c3N3CCC4(CCNC4=O)CC3)cc2)cn1 | COLO 205 | gene expression, microarray, item: BAMBI mRNA | – | concentration not given, 6 h | relative to: untreated cells | log2 fold change | 3.14

Repeated from above:
Structure (SMILES) | target or system | assay | test system | setting | how to read | endpoint | result
CN(C)C(=O)c1c[nH]cc1S(=O)(=O)Nc1ccc(C(F)(F)F)c(Cl)c1 | DRD2 | – | – | – | – | IC50 | > 100 µM
